Results collected from several papers.
Every numbered part comes from another study and shows a few of its results, in no order. Substitutions count along the parent as printed.
Sequence of UniProt Q9SKN5 (whole entry, looked up): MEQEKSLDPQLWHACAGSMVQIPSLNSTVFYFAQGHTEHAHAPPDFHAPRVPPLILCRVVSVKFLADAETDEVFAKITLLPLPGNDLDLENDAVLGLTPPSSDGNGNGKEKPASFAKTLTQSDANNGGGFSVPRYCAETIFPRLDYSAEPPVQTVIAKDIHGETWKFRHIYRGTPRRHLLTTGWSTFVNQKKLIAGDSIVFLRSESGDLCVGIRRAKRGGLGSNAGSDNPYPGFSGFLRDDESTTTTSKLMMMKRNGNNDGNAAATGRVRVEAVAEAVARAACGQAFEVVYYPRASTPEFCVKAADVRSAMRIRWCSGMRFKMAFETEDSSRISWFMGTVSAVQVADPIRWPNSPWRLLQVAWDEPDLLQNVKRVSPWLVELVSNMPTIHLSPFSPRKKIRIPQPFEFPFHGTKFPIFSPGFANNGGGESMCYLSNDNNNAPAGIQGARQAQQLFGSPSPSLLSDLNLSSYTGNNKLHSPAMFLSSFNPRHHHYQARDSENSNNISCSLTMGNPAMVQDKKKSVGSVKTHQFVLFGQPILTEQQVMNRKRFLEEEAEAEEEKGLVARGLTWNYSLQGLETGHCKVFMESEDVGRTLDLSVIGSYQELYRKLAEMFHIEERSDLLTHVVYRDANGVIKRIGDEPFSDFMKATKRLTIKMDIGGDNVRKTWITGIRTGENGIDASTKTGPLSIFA
Sequence of UniProt Q9FX25 (whole entry, looked up): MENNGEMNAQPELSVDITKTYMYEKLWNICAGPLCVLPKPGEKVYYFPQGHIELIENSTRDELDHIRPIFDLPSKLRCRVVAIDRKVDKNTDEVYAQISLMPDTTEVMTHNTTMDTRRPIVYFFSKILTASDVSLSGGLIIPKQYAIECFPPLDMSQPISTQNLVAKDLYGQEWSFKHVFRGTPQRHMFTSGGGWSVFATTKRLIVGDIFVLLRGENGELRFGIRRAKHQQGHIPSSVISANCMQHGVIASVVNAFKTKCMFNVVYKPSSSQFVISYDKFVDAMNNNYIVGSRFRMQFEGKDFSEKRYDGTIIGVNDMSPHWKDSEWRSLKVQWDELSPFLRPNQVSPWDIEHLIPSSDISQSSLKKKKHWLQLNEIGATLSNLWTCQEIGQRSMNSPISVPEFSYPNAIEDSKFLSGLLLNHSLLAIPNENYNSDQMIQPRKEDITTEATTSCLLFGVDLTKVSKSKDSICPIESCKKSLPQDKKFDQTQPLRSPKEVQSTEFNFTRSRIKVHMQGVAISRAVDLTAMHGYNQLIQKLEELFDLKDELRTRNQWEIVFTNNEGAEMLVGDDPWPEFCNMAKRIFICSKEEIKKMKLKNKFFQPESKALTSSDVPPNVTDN
Sequence of UniProt Q9ZSY8 (whole entry, looked up): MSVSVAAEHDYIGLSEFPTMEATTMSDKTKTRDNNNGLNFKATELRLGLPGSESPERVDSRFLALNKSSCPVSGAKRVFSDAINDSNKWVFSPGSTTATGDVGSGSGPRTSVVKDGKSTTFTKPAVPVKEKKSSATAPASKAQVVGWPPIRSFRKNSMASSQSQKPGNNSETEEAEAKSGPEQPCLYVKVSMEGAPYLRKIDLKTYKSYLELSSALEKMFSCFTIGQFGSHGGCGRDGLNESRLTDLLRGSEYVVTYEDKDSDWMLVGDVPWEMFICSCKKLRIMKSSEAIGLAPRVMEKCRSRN
Sequence of UniProt P93024 (whole entry, looked up): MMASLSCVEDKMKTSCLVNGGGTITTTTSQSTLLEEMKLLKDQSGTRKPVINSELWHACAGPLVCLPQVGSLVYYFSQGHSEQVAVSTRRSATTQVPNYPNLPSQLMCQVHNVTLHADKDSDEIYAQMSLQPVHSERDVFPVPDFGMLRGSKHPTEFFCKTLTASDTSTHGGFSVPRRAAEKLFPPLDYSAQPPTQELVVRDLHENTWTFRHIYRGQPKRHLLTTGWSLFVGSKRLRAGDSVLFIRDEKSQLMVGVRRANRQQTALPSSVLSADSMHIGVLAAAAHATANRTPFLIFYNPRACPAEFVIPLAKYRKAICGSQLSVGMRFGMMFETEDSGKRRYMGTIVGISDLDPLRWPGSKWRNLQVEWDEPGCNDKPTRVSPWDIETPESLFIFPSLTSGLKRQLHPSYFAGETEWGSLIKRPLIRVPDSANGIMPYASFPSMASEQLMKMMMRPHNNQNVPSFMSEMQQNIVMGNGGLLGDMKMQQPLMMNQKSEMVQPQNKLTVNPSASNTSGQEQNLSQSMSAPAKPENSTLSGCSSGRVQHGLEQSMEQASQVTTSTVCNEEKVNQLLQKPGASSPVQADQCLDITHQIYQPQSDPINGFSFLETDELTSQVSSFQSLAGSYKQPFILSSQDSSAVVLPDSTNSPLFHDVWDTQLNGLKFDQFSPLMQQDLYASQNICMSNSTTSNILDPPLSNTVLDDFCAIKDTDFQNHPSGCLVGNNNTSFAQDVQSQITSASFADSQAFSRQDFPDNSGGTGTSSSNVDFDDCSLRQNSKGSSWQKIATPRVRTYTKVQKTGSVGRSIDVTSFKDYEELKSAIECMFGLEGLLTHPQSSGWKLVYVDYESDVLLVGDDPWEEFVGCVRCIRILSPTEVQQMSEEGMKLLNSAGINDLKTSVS
Sequence of UniProt Q9M1R4 (whole entry, looked up): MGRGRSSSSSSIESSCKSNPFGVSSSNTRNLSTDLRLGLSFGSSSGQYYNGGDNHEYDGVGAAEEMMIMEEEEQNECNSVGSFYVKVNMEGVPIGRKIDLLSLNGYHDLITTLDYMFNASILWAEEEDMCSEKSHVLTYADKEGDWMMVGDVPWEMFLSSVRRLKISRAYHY

Block 1 — Molecule: B1 (IAA4); method: two-hybrid; relative to: out of 4 tests; reading: higher = firmer interaction
B1: IAA4 (Arabidopsis thaliana, UniProt P33077); chain MEKVDVYDELVNLKATELRLGLPGTEETVSCGKSNKRVLPEATEKEIESTGKTETASPPKAQIVGWPPVRSYRKNNVQTKKSESEGQGNYVKVSMDGAPYLRKIDLTMYKQYPELMKSLENMFKFSVGEYFEREGYKGSDFVPTYEDKDGDWMLVGDVPWEMFVSSCKRLRIMKGSEVKGLGCGGL
For IAA17 (Arabidopsis thaliana, UniProt P93830): positive tests read 4.
ARF5 788-902 (Arabidopsis thaliana, UniProt P93024) — positive tests: 4.
For IAA27 (Arabidopsis thaliana, UniProt Q9ZSY8): positive tests read 4.
The positive tests was 1 (ARF10 575-693 (Arabidopsis thaliana, UniProt Q9SKN5)).
For ARF13 (Arabidopsis thaliana, UniProt Q9FX25): positive tests read 2.
IAA9 (Arabidopsis thaliana, UniProt Q38827) — positive tests: 4.
The positive tests was 2 (IAA30 (Arabidopsis thaliana, UniProt Q9M1R4); weak activation fusion).
For IAA14 (Arabidopsis thaliana, UniProt Q38832): positive tests read 3.

Block 2 — method: protein binding microarray; form: double-stranded DNA, one strand shown; matrix: in vitro; concentration: not given; relative to: not given; reading: higher = stronger binding
Target: Histone acetyltransferase KAT6A, both winged helices, GST fusion (KAT6A, Homo sapiens, UniProt Q92794, residues 1-181)
Setting: 8-mer, flanks averaged, mean of 2 arrays, mostly near background
Target sequence (chain): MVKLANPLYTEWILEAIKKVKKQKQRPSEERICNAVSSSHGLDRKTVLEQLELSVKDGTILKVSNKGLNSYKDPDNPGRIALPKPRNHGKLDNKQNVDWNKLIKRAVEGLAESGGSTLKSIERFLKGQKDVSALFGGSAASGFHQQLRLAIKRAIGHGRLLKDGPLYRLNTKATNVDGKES
For `CGACCGGA`, the E-score was 0.147.
For `GACTACGA`, the E-score was -0.192.
For `CGTAGCTC`, the E-score was 0.119.
With `CAGTCCGC` the E-score was 0.137.
With `AGCAACGG` the E-score was 0.114.
The E-score of `ACTTAAAC` is reported as -0.201.
For `ACTTCGCC`, the E-score was 0.115.
The E-score of `ATTATTAA` is reported as -0.00269.

Block 3 — target: CEBPA, bZIP domain (human); method: DHFR protein complementation; matrix: yeast; relative to: wild-type JUN-FOS pair; reading: higher = stronger binding
Setting: single substitutions, most at no-binding floor
Starting sequence: JUN, bZIP domain (human); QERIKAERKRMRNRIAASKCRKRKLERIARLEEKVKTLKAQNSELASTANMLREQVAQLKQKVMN; partner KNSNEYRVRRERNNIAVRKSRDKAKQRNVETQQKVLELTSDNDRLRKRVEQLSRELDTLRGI
The binding fitness of `L38Y` is reported as -1.44 natural log.
For `K34C`, the binding fitness was -1.42 natural log.
`Q41E` gave a binding fitness of -1.41 natural log.
`Q41T` gave a binding fitness of -1.51 natural log.
The binding fitness of `K34F` is reported as -1.58 natural log.
`V35Q` has a binding fitness of -1.55 natural log.
For `S43T`, the binding fitness was -1.41 natural log.
`V35S` has a binding fitness of -1.46 natural log.

Further values, each from its own experiment
Under binding, `LNWFEIWIV` is recorded as “inactive” (HLA class I histocompatibility antigen, A alpha chain, allele A*80:01 (Homo sapiens, UniProt P04439); peptide-MHC binding; peptide; concentration not given).

A few entries again (block 1):
For IAA17 (Arabidopsis thaliana, UniProt P93830): positive tests read 4.
The positive tests was 1 (ARF10 575-693 (Arabidopsis thaliana, UniProt Q9SKN5)).
IAA9 (Arabidopsis thaliana, UniProt Q38827) — positive tests: 4.
